Measured values of several laboratories.
Numbers after ± are the reported error.
Albumin: Albumin (Mus musculus, UniProt P07724)
UniProt P07724, sequence (whole entry, looked up): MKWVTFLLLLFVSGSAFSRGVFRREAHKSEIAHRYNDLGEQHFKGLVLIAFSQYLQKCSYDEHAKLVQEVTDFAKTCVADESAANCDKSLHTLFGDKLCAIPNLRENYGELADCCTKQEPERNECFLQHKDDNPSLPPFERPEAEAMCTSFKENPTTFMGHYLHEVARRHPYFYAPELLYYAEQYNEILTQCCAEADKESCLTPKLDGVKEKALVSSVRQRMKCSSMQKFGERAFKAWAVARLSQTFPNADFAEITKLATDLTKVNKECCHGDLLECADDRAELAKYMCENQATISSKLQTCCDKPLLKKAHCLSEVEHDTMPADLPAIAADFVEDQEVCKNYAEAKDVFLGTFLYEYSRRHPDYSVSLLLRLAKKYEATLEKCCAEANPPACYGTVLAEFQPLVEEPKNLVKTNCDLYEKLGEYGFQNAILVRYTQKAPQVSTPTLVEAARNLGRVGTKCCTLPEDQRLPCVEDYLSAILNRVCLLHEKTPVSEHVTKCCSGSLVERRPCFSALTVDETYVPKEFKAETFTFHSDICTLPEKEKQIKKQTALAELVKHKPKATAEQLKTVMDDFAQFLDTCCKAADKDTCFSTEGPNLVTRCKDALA
CYP2C19: Cytochrome P450 2C19 (CYP2C19, Homo sapiens, UniProt P33261)
UniProt P33261, sequence (whole entry, looked up): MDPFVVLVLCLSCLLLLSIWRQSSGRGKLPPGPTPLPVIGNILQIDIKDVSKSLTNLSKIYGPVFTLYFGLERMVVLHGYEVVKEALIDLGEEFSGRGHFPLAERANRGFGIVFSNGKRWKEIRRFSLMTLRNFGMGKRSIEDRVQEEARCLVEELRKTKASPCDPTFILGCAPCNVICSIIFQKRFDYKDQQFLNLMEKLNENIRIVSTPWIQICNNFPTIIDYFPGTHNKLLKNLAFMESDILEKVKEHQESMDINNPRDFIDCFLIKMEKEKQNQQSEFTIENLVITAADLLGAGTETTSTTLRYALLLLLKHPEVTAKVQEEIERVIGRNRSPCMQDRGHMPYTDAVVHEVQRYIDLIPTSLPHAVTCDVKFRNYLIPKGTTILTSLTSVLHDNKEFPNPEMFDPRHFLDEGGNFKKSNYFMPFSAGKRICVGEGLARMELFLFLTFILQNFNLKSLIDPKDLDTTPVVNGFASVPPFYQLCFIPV
CYP2C9: Cytochrome P450 2C9 (CYP2C9, Homo sapiens, UniProt P11712)
UniProt P11712, sequence (whole entry, looked up): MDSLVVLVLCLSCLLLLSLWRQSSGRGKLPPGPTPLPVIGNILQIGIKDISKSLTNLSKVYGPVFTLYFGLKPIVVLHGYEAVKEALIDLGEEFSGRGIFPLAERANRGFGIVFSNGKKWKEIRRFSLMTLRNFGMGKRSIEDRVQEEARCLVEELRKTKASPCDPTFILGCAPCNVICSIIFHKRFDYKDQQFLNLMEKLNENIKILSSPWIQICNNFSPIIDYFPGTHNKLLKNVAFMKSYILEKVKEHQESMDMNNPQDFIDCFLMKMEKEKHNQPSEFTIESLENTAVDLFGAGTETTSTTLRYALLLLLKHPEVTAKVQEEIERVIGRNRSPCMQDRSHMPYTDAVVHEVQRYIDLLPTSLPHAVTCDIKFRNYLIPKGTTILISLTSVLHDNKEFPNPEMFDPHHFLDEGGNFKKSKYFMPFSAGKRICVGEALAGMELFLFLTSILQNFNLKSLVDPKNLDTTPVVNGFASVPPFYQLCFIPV
TDP1: Tyrosyl-DNA phosphodiesterase 1 (TDP1, Homo sapiens, UniProt Q9NUW8)
UniProt Q9NUW8, sequence (whole entry, looked up): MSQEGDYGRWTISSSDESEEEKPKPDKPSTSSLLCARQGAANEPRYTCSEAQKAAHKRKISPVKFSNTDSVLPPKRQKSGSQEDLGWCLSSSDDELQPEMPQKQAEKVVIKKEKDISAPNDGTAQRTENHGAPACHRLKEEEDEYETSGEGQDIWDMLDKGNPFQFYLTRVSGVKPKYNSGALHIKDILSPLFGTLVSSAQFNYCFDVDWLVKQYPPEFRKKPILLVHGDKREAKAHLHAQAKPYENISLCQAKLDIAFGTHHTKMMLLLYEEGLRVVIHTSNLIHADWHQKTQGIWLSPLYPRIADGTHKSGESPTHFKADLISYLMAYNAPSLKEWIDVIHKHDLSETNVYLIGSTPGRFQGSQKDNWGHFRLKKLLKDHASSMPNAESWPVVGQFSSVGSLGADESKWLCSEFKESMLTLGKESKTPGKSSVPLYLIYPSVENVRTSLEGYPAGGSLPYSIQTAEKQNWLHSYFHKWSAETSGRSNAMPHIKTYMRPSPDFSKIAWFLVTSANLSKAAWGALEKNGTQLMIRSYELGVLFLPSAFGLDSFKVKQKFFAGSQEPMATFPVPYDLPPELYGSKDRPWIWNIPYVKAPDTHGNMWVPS
UniProt P10635, sequence (whole entry, looked up): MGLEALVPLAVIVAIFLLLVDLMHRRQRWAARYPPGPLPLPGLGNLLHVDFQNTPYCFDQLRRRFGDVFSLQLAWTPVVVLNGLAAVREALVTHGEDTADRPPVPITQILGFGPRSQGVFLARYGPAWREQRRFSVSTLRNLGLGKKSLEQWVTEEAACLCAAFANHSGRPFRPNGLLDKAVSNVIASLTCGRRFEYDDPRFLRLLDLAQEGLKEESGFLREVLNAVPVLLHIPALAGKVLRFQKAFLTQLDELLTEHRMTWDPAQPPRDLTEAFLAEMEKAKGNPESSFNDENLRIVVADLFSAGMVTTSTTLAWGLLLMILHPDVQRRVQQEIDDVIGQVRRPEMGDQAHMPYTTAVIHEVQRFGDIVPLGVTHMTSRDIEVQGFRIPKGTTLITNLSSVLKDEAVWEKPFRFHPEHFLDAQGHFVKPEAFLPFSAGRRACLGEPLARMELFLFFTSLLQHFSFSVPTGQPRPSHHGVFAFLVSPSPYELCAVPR
UniProt P22310, sequence (whole entry, looked up): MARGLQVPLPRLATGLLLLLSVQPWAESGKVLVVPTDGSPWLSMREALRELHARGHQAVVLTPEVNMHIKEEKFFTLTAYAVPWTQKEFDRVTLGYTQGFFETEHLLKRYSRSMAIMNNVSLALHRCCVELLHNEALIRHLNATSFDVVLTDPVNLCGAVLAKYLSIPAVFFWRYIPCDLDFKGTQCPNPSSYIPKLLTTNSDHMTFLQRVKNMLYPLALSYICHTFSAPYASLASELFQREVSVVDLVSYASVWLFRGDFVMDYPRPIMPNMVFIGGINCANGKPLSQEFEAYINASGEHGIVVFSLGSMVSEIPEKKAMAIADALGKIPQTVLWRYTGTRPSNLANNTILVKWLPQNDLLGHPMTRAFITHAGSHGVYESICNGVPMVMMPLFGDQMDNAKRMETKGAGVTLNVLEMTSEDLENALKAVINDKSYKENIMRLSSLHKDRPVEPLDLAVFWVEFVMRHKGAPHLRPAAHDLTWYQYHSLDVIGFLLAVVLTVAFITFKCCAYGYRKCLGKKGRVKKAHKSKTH

For `CN1CCN(c2ccc3[nH]c(-c4ccc5[nH]c(-c6ccc(OCCCCNC(=O)c7ccc8c(c7)C(=O)OC87c8ccc(N(C)C)cc8C(C)(C)c8cc(N(C)C)ccc87)cc6)nc5c4)nc3c2)CC1`, “fluorescence quantum yield” read 0.04 ± 0.02 (Albumin; PBS; 1 µM, 1 h, together with: 25 mg/mL albumin).
With `O=C(NS(=O)(=O)c1cccs1)c1cc2ccccc2n1Cc1ccc(Br)c2ccccc12` the IC50 was 2.03 µM (CYP2C19; enzyme activity, inhibitor; human liver microsomes).
For `C=C(NC(=O)c1csc(-c2nc3c(cc2O)-c2nc(cs2)C(=O)NC(C(C)O)C(=O)NC(=C(C)OC)c2nc(cs2)C(=O)NC2c4nc(cs4)C(=O)NC(COC(=O)c4c5c6c(cccc6n4O)COC(=O)C(OC4CC(C)(O)C(N(C)C)C(C)O4)C2OC5)c2nc-3cs2)n1)C(N)=O` (centres unmarked), the remaining activity was over 70% (CYP2C19; enzyme activity, inhibitor, substrate cocktail; pooled human liver microsomes; up to 50 µM, pH 7.4).
`O=C(CN1CN(c2ccccc2)C2(CCN(C(=O)c3cc4cn[nH]c4cn3)CC2)C1=O)NCC(F)(F)F` gave an IC50 of 2 µM (CYP2C9; enzyme activity, inhibitor).
`CNC(=O)C1CCCN(C(=O)C2CC3CCC2N3C(=O)[C@@H]2C[C@@H](O)CN2C(=O)NCc2cccc(Cl)c2F)C1` (mixture of isomers) has a remaining activity of 131% (Cytochrome P450 2D6 (CYP2D6, Homo sapiens, UniProt P10635); enzyme activity, inhibitor, time-dependent inhibition; 5.56 µM, preincubated with NADPH; relative to: negative control).
With `CN1CCN(c2ccc3[nH]c(-c4ccc5[nH]c(-c6ccc(OCCCCNC(=O)c7ccc8c(c7)C(=O)OC87c8ccc(N(C)C)cc8[Si](C)(C)c8cc(N(C)C)ccc87)cc6)nc5c4)nc3c2)CC1` the Kd was over 1000 µM (Albumin; binding, second site, fluorescence titration; PBS).
Under “contribution of other UGTs”, `CCCCN1C(=O)c2cccc3c(N4CCN(C)CC4)ccc(c23)C1=O` is recorded as under 2% (UGT1A4 (Homo sapiens, UniProt P22310); N-glucuronidation, substrate, relative activity factor; human, recombinant UGT, liver microsomes).
With `CN(C)c1ccc2c(c1)[Si](C)(C)c1cc(N(C)C)ccc1C21OC(=O)c2ccc(C(=O)O)cc21` the Kd was 5 ± 1 µM (Albumin; binding, fluorescence titration; PBS).
For `C=CC(=O)Nc1cc(Nc2nccc(-c3cn(C)c4ccccc34)n2)c(OCC(F)(F)F)nc1N(C)CCN(C)C`, “contribution to substrate depletion” read 0.668% (CYP2C19; substrate; 3 µM, 60 min, 2C19 isoform, liver abundance-normalized).
The IC50 of `N#Cc1cccc(N2CN(CC(=O)NCC(F)(F)F)C(=O)C23CCN(C(=O)c2cnc4[nH]ncc4c2)CC3)c1` is reported as 4.4 µM (CYP2C9; enzyme activity, inhibitor).
For `Cc1c(C=NOCc2ccc(-c3nc4cc(-c5ccccc5)ccn4c3Nc3ccc(C(=O)O)cc3)cc2)cnn1CCC(=O)O`, the inhibition was 64.5% (TDP1; enzyme activity, inhibitor; 100 µM, unpurified compound).
`CN(C)c1ccc2c(c1)[Si](C)(C)c1cc(N(C)C)ccc1C21OC(=O)c2c(C(=O)O)cccc21` gave a Kd of 0.16 ± 0.12 µM (Albumin; binding, fluorescence titration; PBS).
For `Cn1c(C=NOCc2ccc(-c3nc4cc(-c5ccccc5)ccn4c3Nc3ccc(C(=O)O)cc3)cc2)c(Cl)c2ccccc21` (mixture of isomers), the inhibition was 41.4% (TDP1; enzyme activity, inhibitor; 100 µM, unpurified compound).
For `C[C@@H](Nc1c(-c2c(F)cc(C#N)cc2F)c(Cl)nc2ncnn12)C(C)(C)C`, the IC50 was over 15 µM (human CYP3A4, CYP2D6, CYP2C19, CYP2C9, CYP1A2; inhibitor; pooled human liver microsomes; pH 7.4, together with: isoform-specific probe substrates).

For quick reference, copied from above:
For `C=CC(=O)Nc1cc(Nc2nccc(-c3cn(C)c4ccccc34)n2)c(OCC(F)(F)F)nc1N(C)CCN(C)C`, “contribution to substrate depletion” read 0.668% (CYP2C19; substrate; 3 µM, 60 min, 2C19 isoform, liver abundance-normalized).
The IC50 of `N#Cc1cccc(N2CN(CC(=O)NCC(F)(F)F)C(=O)C23CCN(C(=O)c2cnc4[nH]ncc4c2)CC3)c1` is reported as 4.4 µM (CYP2C9; enzyme activity, inhibitor).
